Published values collected from several papers.
Numbered parts are unrelated; each lists some results of a single study.
Sequence of UniProt P48147 (whole entry, looked up): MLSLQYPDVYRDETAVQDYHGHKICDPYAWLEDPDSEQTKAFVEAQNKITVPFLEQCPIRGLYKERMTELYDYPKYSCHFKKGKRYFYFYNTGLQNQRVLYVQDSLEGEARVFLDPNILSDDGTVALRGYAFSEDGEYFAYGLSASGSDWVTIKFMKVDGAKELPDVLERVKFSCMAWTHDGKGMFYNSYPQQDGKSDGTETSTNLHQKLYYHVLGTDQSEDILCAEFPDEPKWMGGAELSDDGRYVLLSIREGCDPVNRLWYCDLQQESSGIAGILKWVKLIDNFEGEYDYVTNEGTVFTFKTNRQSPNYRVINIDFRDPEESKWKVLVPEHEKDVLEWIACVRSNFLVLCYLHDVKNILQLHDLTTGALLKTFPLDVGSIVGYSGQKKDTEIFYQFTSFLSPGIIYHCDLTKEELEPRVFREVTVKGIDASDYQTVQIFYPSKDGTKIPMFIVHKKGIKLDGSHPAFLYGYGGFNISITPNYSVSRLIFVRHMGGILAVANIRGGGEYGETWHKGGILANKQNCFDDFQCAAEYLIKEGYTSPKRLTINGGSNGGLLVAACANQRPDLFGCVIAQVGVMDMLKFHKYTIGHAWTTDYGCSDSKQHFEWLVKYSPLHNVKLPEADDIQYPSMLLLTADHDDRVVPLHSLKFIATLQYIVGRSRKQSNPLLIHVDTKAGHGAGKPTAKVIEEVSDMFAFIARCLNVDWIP
Sequence of UniProt P28335 (whole entry, looked up): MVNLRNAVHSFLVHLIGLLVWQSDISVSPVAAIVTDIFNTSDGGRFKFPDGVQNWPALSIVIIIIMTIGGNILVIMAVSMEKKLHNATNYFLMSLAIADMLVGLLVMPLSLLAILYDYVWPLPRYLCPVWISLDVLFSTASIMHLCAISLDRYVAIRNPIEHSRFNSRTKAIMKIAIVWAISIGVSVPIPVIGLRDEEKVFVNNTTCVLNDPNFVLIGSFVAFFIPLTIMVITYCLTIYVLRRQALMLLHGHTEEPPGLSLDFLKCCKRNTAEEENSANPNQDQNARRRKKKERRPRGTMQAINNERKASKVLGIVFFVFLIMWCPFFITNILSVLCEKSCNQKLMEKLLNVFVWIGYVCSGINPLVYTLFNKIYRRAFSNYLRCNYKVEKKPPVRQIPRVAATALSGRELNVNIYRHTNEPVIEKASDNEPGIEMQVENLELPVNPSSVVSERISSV
Sequence of UniProt Q01959 (whole entry, looked up): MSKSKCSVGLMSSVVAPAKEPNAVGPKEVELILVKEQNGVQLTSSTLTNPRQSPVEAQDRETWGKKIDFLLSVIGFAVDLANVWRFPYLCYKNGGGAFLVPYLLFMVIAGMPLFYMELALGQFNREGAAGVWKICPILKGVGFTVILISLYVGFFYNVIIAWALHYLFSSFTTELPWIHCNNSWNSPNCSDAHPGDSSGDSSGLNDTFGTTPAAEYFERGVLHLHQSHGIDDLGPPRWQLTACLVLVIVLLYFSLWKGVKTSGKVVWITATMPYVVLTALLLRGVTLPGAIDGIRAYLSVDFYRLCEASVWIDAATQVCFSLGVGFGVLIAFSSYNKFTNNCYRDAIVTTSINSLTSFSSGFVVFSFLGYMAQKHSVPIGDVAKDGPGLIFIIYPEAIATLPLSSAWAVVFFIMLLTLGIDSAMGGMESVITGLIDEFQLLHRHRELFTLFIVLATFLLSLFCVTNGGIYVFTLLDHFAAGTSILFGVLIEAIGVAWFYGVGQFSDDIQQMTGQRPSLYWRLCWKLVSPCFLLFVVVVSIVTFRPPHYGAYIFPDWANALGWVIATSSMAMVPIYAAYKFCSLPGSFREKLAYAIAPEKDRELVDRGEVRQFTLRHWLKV

Series 1
Compound: N=C(N)c1ccc2cc(OC(=O)c3ccc(N=C(N)N)cc3)ccc2c1
Concentration: 10 µM
| target | effect on | action | inhibition [%] |
| --- | --- | --- | --- |
| Genome polyprotein, NS3 protease (Hepatitis C virus genotype 1b, UniProt Q9WMX2, R1181K) | – | – | 41 |
| Genome polyprotein (Hepatitis C virus genotype 1b, UniProt Q9WMX2) | protease activity | inhibitor | 46 |
| Prolyl endopeptidase (PREP, Homo sapiens, UniProt P48147) | – | – | 29 |

Series 2
Cell line: A-375
Concentration: 100 µM
Time: 36 h
| SMILES | viability [%] |
| --- | --- |
| COc1ccc2c(c1)[C@]13CCCC[C@@H]1[C@H](C2)N(C)CC3 | 112 |
| CCC(=O)O[C@H]1CC[C@H]2[C@@H]3CC[C@H]4CC(=O)[C@H](C)C[C@]4(C)[C@H]3CC[C@]12C | 24 |
| CCCC[N+]1(C)[C@@H]2C[C@@H](OC(=O)[C@H](CO)c3ccccc3)C[C@H]1[C@@H]1O[C@@H]12 (stereo partly drawn) | 97.4 |
| C[C@]12CCC(=O)C=C1CC[C@@H]1[C@@H]2C(=O)C[C@]2(C)C(=O)CC[C@@H]12 | 96.5 |

Other studies, line by line
| SMILES | target or system | test | setting | scale | quantity | value |
| --- | --- | --- | --- | --- | --- | --- |
| COCCc1ccc(-c2c(C)nc3c(N4CCOCC4)ccnn23)cn1 | 5-hydroxytryptamine receptor 2C (HTR2C, Homo sapiens, UniProt P28335) | binding, radioligand binding | 10 µM | – | inhibition | 68.2% |
| CCN(CCO)CCCOc1ccc2c(Nc3cc(CC(=O)Nc4cccc(F)c4)[nH]n3)ncnc2c1 | HH | CCK-8 | 2 µM, 48 h | reference: untreated | viability | 68.8% |
| CC(=O)Nc1c(F)cc(C(=O)N[C@H]2CC[C@H](O)CC2)cc1O[C@@H](C)c1ccccc1 | 5-hydroxytryptamine receptor 2A (HTR2A, Homo sapiens, UniProt P28223) | binding, radioligand binding | 10 µM | – | inhibition | -13.8% |
| Nc1cnc(N2CCc3cc(S(=O)(=O)Nc4c(F)cc(Cl)cc4F)cc(N4CCCC4=O)c32)nc1 | Cyclin-dependent kinase 2 homolog (CRK2, Plasmodium falciparum, UniProt P61075) | cell-free assay, competition with immobilised ligand | 1 µM | – | remaining binding | 100% |
| C[C@H](c1ccnc(Nc2nc3ccc(-c4cc(N(C)C)ncn4)cc3[nH]2)c1)N1CCN(C(=O)CC(F)(F)F)CC1 | Sodium-dependent dopamine transporter (SLC6A3, Homo sapiens, UniProt Q01959) | ligand displacement | 10 µM | – | inhibition | 30.5% |
